# Published values of several laboratories.
# Numbered parts are unrelated; each lists some results of a single study.

# Sample 1 — technique: aptamer microarray, sandwich; form: DNA with 2'F-ANA; medium: in vitro; tested at: 200 nM; together with: Cy3 exosite-II aptamer, 400 nM; reading: higher = stronger binding; oligonucleotide: GGTTGGTGTGGTTGG
# Target: Prothrombin, mature alpha-thrombin (F2, Homo sapiens, UniProt P00734)
# Notes: whole 15-mer aptamer, many near background
Modification,mean fluorescence intensity [a.u.]
2'F-ANA at 3 5 7 8 9 10 13 14,53.5
2'F-ANA at 2 4 6 7 8 10 13 14,63.8
2'F-ANA at 1 2 3 5 6 7 8 11 12 15,98.5
2'F-ANA at 2 3 7 8 9 10 14,560
2'F-ANA at 1 2 6 8 9 10 11 12 14,45.5
2'F-ANA at 2 4 5 8 9 13 15,52.9
2'F-ANA at 2 3 4 6 9 12 15,713
2'F-ANA at 1 2 3 7 11 15,236
2'F-ANA at 3 8 10 13 14 15,384

# Sample 2 — technique: Sort-seq; measured: YFP reporter; medium: E. coli; notes: PhoQ-PhoP variant library; together with: 10 µM Mg2+; baseline: high Mg2+ state; reading: higher = stronger signaling
# Substance: PhoQ, residues 284 288 289 292 302 303 TLASMF
target,fold induction
"PhoP, residues 12 14 15 18 19 QYFSL (Escherichia coli, UniProt P23836)",4.56
"PhoP, residues 12 14 15 18 19 NYFRM (Escherichia coli, UniProt P23836)",10.9
"PhoP, residues 12 14 15 18 19 TQALL (Escherichia coli, UniProt P23836)",1.83

# Sample 3 — technique: RNA Bind-n-Seq; form: RNA; medium: in vitro; tested at: 365 nM; baseline: no-protein control; reading: higher = stronger binding
# Target: RNA binding protein fox-1 homolog 2, RRM domain, GST-SBP tag (RBFOX2, Homo sapiens, UniProt O43251-10, residues 100-194)
# Notes: natural RNA segment, single round, ends assumed
# Target sequence (chain): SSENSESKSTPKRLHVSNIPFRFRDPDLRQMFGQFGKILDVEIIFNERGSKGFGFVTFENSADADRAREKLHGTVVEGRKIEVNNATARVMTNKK
Oligonucleotide,RBNS enrichment (R)
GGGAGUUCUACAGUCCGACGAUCAUCAUUUAAAGUUGAAAGAAAAAUAUUUAUAUAUUUUAUGAACCACAAGGACACUUUAAAACCUUAGGAAUUAUAAAAAUGUCUUUGAUAUUAGAUACUCACAAUCAAAGUGGAAUUCUCGGGUGCCAA,0.598
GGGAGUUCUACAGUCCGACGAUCGUUUUGAAAUGAUUGCUUCAGUCUUUGCCUUUGUUUGCAUUUGUGUUUAGUGAAAACUAGAGAAACACAAUAAGCAAAUCACUUGAAGGCUGAGAUGAUUGAACUGAAAGUGGAAUUCUCGGGUGCCAA,0.302
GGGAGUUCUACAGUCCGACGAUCGUAAAAAGCAUGUAUUUAUAGUGUUUUAGAUUUUUCUAACUUUUGUAUCUUACAGCAUUGUACCCCAUUGUUAAAGAGCCGUGUCCCCUCUUCUUAUAAACGCCCUUCUAUGGAAUUCUCGGGUGCCAA,0.862
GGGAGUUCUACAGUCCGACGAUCCACUCUUUAUUCUGAGACAGGGUCUCCCCAUGUUGCCCAGGCUGGUCUUGAACAACUGCCUCACUCUAUAGCCCAAGUUAUCUAGGUCUGAUAGUUGGGAUAAAGGGCUCUGGAAUUCUCGGGUGCCAA,0.25
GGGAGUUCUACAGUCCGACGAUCCGGUAUUUUAACUUUCUGCCUCGGCCUCUGUGGAUGCAGAAAUCUGCCCUACAAAAUGCUCUUCAUUGGUUGUCUCUGUGAGAGCACUGUCCCCACCCAACCUGUCACAAUGGAAUUCUCGGGUGCCAA,0.453
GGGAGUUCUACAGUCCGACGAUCUCAUGGAGGACUAAAGCCUAAGUCCUUUUCACUUUUCCUCCAUCUGAAGGUAGGUGAGUUCAUCCUCUUCAUGGUAAUGCUGUUUUACCAAGACUUUAUAGCAGAUGGACUGGAAUUCUCGGGUGCCAA,0.224
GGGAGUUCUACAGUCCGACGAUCCUCCCCAGCCACCCCCAUCUGGCAGCUGAUCUCCAAAGUCCUGGCCCGUCACUUCAGUGUAGCAGAUGCCAGCAGGGUCCUGGAACAACUACAGAGGGAUUAUGACAGGUUGGAAUUCUCGGGUGCCAA,0.506
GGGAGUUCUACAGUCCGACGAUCAUUCAUAAAAGUUUGCAUGUGUUUUUAUUCUCUAGAUCUGUUACCAAUAUAGUUUUCUAACUCCUGUUUGGGGAGCAAGUGUUAAUAAUAACUUAUUCCUAAAGCUUGGUUGGAAUUCUCGGGUGCCAA,42.2
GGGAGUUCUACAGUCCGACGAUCUGAAUGCCAUUGUGUGCCAGUUGCUCCCCUACCUCUGAUGACAUCUCUGUUCUCCCUGGGAAAGGUCAUCAUCUCUGUUCAGAUGGGGAAGUUGAGGCCCAGAGAAUUUAUGGAAUUCUCGGGUGCCAA,1.2
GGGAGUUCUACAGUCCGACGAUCUAUACGUGGCAGUAGUUCAGCAAUAAUACAUCACAACAUUGCAUCAAUCAUGGGCUCCCACCAAUAAACACUUUACGGGUGGGUGUGUGUGUGUGUGCGCGCGCGCGCAUUGGAAUUCUCGGGUGCCAA,0.399
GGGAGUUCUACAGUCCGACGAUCGUUUUAAACAAAACAACAGGAAGAACAGGACCAGGACUCUCCUAUACACAGUGUGUAGGAACAGCUGCCUGGGAAGCUGUGUGUCUGUCCCUCUGUUCACUACCCUCUUGUGGAAUUCUCGGGUGCCAA,0.845

# Sample 4 — technique: RNA Bind-n-Seq; form: RNA; medium: in vitro; tested at: not given; baseline: input RNA pool; reading: higher = stronger binding
# Target: RING finger protein unkempt homolog, zinc fingers 1-6, GST-SBP tag (UNK, Homo sapiens, UniProt Q9C0B0, residues 30-357)
# Notes: RNA with constant flanks, human-mouse chimeric sites, ends assumed
# Target sequence (chain): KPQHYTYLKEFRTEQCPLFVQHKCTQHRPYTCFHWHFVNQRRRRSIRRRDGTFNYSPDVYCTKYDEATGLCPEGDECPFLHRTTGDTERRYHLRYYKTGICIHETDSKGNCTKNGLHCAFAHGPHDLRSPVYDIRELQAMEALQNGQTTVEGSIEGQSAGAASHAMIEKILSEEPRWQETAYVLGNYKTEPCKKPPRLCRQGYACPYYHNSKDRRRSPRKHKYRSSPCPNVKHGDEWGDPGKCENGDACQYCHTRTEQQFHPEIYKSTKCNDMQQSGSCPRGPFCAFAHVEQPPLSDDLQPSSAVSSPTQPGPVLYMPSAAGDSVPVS
Oligonucleotide,bound/input enrichment [ratio]
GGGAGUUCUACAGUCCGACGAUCUAAAUUAGGGCUGCCGUCCGUUCUCACUCCCUGGGCUGCGGAAAGCCAGAAGAUUUUAUCUAGCUUAAACCAGGCUGCUGGUGUUCCCUCUUUUUUUCCACGAGGGUGUUUUUGGCUGCACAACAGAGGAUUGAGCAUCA,0.359
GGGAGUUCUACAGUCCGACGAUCGGAAGUACAUUAAUGGAGAUUGAUGGUGACAAAGGCAAGCAGGGCGGGCCCACCUACUACAUAGACACCAAUGCCCUCCGCGUGCCCAGGGAGAACAUGGAGGCCAUCUCACCACUCAAGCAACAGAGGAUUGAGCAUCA,0.308
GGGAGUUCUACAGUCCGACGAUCCUUAAUGUUAAUAUUUUUGAAUAAAUGAAGCUAAAAUGUCUGCUUUUGGUACAACACGCAUUAAUAAAAGGUUAAGUAAGUUUUGUUACUGAAGUACUAUUUAACAUCUCAGAAAAAAACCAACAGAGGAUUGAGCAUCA,0.687
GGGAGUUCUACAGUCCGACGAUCCUGAAAAACACAGAUAUCAAAGUUGUUGACUUUGGAAGUGCAACAUAUGAUGAUGAACAUCACAGUACUUUGGUGUCUACCCGGCACUACAGGGCUCCCGAGGUCAUUUUGGCUUUAGGUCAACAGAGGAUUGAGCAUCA,0.372
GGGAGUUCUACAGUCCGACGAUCAUGGAGAAGGAUUCUCUGCCUCGCUUUGUGCGCUCUGAAUUUUAUAAGGAGCUAAUCAAGUAGUCAUUUAGCCAGGCUUCCAAAAGUUGCCCUGUGAGUUGAGUUACAUCCUUUGUAGCACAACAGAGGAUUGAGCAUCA,0.454
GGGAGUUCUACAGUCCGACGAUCAUGGAGAAGGAUUCUCUGCCCCGCUUUGUGCGCUCUGAAUUUUAUAAGGAGCUAAUCAAGUAGUAAUCUGGUCAGGCUAUGAAAUCAUGCCCUGUGAGUUGAGUUACAUCCUUUGUAGCACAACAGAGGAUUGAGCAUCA,0.203
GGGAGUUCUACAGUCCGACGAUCAGGAGGAGGUUAAAGGGUGAGAGUGGGGUGGAAGACUGUGUCAUGGCUCUGGAGACACUGUUCAGUGUUCUGCUUUCUCUGUGCAGACUUAUGGCUCCUUACACGCCCUUUCUGACUGAGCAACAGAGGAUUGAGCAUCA,0.0714
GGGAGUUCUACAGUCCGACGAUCCAGACUGGCAACUGUUUUUUAGACAUUCACAUCAGACUUACAGAGCACCUGGCCACAUUCUAGGUUUGUGUUAUUUCUCAGCUAUGGAUAUGAUCAAAUGAGAACACUGCUUAACUAAUGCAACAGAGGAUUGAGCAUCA,0.343
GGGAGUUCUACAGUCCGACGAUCGUUCGGCUUUGGGAUCAUGCCACAAUGACAGAAGUGAAAUCUCUGAAUUUUAAUAUGUCUGUUAGCAGCAUGGAGUAUAUUCCUGAAGGAGAGAUUUUGGUUAUAACUUAUGGACGAUCUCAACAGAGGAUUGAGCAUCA,0.353
